Published values from different studies.
Each numbered part is a random draw from the data of one study; scales do not carry over between parts.
Chain of UniProt Q99558 (whole entry, looked up): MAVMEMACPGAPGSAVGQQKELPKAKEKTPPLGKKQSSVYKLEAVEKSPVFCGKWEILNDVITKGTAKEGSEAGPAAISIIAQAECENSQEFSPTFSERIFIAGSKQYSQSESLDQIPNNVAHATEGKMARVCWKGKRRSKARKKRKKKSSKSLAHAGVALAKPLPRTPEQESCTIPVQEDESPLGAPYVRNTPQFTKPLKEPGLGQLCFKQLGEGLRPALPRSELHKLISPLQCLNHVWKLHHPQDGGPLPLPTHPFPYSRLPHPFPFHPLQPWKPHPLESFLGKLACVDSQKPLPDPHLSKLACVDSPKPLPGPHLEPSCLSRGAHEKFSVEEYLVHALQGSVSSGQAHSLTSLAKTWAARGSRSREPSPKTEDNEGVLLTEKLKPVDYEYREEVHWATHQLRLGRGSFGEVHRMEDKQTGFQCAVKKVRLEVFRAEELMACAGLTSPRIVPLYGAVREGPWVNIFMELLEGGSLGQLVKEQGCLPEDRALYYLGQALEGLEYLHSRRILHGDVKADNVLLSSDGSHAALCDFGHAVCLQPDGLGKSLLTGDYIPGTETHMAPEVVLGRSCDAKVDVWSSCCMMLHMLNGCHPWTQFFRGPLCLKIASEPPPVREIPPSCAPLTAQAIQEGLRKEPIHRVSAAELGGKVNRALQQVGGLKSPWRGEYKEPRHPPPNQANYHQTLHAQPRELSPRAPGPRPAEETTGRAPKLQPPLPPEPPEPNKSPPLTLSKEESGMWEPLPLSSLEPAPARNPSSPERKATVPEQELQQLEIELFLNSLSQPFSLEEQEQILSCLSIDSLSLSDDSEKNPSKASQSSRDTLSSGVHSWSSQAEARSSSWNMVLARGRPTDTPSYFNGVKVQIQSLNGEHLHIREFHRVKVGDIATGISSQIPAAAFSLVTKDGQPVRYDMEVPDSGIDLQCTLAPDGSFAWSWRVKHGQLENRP
Chain of UniProt Q9C098 (whole entry, looked up): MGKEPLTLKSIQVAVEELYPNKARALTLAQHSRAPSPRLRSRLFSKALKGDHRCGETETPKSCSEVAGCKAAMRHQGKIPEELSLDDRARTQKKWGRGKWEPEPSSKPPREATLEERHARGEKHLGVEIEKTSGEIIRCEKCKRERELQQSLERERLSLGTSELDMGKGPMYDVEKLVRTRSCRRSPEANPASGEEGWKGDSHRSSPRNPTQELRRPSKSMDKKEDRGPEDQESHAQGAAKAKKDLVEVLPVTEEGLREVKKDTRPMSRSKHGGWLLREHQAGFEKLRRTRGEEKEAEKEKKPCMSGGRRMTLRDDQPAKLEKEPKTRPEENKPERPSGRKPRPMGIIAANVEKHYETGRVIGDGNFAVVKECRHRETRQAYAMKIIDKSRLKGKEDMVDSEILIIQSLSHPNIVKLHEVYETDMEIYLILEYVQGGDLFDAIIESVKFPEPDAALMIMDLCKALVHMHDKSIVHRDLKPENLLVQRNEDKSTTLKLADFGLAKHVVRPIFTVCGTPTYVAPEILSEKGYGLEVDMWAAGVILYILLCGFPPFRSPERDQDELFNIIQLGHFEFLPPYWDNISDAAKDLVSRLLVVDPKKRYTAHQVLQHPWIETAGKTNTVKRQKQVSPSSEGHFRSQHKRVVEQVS
Chain of UniProt P10721 (whole entry, unmodified, looked up): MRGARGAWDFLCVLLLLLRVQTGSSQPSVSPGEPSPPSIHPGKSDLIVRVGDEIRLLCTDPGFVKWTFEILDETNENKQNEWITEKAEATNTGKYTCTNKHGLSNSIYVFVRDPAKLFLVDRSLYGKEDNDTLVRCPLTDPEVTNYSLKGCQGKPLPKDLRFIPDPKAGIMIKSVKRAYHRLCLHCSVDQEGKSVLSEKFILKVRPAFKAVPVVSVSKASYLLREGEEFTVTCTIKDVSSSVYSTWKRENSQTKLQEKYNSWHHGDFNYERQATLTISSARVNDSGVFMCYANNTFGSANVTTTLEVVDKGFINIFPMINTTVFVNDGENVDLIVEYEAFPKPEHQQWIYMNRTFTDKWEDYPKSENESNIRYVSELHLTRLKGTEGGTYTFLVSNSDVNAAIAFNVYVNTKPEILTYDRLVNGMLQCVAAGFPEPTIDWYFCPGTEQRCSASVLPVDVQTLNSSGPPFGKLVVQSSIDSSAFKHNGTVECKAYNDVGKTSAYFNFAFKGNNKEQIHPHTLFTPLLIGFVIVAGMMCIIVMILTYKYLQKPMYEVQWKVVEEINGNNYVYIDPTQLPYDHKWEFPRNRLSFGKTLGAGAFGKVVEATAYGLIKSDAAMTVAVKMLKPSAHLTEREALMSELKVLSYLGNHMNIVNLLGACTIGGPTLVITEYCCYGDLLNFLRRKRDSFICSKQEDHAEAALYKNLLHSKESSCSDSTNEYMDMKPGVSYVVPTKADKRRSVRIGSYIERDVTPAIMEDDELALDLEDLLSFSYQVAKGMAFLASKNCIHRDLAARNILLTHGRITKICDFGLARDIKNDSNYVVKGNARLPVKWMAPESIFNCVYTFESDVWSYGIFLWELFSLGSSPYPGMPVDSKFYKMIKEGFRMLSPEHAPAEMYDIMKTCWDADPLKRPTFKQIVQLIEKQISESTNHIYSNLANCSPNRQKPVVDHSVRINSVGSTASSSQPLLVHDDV
Chain of UniProt P48729 (whole entry, looked up): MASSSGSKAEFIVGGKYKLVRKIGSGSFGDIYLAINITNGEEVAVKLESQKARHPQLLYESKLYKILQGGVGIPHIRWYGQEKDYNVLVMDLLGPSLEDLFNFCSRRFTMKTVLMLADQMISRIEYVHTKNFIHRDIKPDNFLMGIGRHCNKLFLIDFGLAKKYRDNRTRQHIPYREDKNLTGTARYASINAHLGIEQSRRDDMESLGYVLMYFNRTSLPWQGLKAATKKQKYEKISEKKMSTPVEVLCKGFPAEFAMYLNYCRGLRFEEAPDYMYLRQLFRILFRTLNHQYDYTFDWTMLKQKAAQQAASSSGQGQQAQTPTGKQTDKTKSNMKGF
Chain of UniProt P21802 (whole entry, looked up): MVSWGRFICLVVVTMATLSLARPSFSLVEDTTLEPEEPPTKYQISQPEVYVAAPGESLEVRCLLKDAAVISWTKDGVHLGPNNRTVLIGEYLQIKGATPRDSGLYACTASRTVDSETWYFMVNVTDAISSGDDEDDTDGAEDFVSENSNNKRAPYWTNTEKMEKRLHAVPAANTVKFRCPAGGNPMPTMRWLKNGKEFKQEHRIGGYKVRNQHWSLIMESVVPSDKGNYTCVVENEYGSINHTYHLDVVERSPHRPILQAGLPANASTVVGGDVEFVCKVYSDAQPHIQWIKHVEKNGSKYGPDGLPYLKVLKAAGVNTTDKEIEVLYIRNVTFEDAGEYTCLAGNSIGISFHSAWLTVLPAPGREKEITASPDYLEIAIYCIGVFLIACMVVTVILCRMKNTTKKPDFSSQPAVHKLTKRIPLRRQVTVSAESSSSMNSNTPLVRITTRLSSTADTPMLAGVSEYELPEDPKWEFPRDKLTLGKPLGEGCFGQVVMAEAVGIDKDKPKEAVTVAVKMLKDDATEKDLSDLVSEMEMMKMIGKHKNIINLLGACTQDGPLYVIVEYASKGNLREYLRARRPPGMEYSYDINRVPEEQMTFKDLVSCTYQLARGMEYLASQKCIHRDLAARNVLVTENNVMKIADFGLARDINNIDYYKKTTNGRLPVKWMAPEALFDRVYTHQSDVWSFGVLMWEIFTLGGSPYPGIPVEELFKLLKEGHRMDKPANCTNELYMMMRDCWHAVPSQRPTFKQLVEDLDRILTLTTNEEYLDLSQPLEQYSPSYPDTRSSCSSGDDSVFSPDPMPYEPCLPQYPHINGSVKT
Chain of UniProt P51812 (whole entry, looked up): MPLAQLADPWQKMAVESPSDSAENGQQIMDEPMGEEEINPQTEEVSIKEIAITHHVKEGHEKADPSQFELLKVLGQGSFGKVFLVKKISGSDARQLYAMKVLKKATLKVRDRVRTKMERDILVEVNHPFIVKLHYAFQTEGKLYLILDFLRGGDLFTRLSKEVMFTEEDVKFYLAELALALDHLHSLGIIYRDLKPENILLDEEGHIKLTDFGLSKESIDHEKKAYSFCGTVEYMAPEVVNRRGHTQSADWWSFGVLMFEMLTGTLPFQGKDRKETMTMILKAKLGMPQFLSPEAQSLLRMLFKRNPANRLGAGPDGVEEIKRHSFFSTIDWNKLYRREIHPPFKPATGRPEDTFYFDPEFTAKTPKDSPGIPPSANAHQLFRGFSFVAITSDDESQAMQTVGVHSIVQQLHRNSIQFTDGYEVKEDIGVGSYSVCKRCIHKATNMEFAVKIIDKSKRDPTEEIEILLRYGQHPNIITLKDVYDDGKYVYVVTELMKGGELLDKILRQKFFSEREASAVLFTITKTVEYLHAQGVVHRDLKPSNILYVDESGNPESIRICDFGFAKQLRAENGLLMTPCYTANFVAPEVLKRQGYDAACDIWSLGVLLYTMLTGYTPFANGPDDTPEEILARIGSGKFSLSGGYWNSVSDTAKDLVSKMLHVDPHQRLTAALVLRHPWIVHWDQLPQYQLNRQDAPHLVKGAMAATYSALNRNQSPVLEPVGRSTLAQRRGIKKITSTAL
Chain of UniProt P0C264 (whole entry, looked up): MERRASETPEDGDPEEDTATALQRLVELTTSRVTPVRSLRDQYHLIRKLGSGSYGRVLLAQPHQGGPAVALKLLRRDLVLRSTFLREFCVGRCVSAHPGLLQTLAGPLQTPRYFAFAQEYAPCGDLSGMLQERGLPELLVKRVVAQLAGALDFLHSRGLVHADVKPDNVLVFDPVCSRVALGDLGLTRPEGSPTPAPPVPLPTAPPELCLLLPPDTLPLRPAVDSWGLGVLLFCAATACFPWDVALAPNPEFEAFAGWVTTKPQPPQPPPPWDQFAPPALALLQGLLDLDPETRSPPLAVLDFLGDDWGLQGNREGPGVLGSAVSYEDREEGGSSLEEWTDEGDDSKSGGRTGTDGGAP

Set 1
Target: Mitogen-activated protein kinase kinase kinase 2 (MAP3K2, Homo sapiens, UniProt Q9Y2U5)
Effect on: enzyme activity
Mode: inhibitor
Tested at: 0.5 µM
Reference: control
Residues (Q9Y2U5 1-619): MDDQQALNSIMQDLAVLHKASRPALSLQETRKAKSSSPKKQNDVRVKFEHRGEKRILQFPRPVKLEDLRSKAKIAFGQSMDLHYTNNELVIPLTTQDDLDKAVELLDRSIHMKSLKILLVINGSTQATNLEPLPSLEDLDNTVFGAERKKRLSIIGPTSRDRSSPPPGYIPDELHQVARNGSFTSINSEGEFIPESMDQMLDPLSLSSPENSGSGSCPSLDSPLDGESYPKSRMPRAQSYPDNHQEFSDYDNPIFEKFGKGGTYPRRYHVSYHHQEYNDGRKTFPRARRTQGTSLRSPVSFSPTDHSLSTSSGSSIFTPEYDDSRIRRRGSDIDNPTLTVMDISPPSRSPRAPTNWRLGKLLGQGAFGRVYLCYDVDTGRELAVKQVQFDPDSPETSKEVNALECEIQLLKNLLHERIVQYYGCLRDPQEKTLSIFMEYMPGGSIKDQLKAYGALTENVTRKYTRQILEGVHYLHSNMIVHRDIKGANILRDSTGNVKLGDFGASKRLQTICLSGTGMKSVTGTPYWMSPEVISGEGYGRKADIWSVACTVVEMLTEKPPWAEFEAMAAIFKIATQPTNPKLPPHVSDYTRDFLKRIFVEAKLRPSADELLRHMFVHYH
With `CC(C)n1cnc2c(Nc3cccc(Cl)c3)nc(NCCO)nc21` the remaining activity was 97.6%.
`CCCCc1c(-c2ccc(O)cc2)[nH]c2nccnc12` gave a remaining activity of 77.2%.
`CCCNC(=O)Nc1ccc(Oc2ncnc3cc(OC)c(OC)cc23)cc1Cl` has a remaining activity of 89.5%.
For `N#Cc1cnc2cnc(NCc3cccnc3)cc2c1Nc1ccc(F)c(Cl)c1`, the remaining activity was 81.2%.
The remaining activity of `CC(C)N(CCC(=O)c1ccc2ccccc2c1)Cc1ccccc1` is reported as 107%.
`O=C1NC(=O)c2c1c1c3ccccc3[nH]c1n1cncc21` gave a remaining activity of 97.9%.
For `CC(C)(C)c1nc2c3cc[nH]c(=O)c3c3cc(F)ccc3c2[nH]1`, the remaining activity was 33.9%.
The remaining activity of `O=c1c(-c2ccc(F)cc2)c(-c2ccncc2)[nH]n1-c1ccc(Cl)cc1` is reported as 98.9%.
`Cc1cc(Nc2cc(N3CCN(C)CC3)nc(Sc3ccc(NC(=O)C4CC4)cc3)n2)[nH]n1` gave a remaining activity of 116%.
The remaining activity of `CN1CCN(c2ccc3nc(-c4c(N)c5c(F)cccc5[nH]c4=O)[nH]c3c2)CC1` is reported as 66.2%.
With `FC(F)(F)c1ccc(/C=C/c2nc(COc3ccc(CCCCn4ccnn4)cc3)co2)cc1` the remaining activity was 102%.
With `C[C@@H](N)[C@H]1CC[C@H](C(=O)Nc2ccncc2)CC1` the remaining activity was 104%.
For `O=C1NC(=O)/C(=C/c2ccc3c(c2)OC(F)(F)O3)S1`, the remaining activity was 94%.
For `CNc1cc2c(Nc3cccc(Br)c3)ncnc2cn1`, the remaining activity was 74.9%.
With `NC(=O)c1ccc(-c2nc(-c3ccc4c(c3)OCCO4)c(-c3ccccn3)[nH]2)cc1` the remaining activity was 98.8%.
`Clc1ccc(Nc2nnc(Cc3ccncc3)c3ccccc23)cc1` has a remaining activity of 126%.
The remaining activity of `O=C(O)/C=C/c1cc(Br)c(Br)c(Br)c1Br` is reported as 102%.
The remaining activity of `N#C/C(=C(/N)SC1C=CC=CC1)c1cccc(C(O)c2ccncc2)c1` (stereo not drawn) is reported as 96.9%.

Set 2
Cell line: A-375
Tested at: 100 µM
Time: 36 h
`CCOC(CN1CCN(CC(C)C(=O)c2ccccc2)CC1)c1ccccc1` (stereo not drawn) gave a viability of 41.8%.
With `Cc1cncc(CN2CCC(=C3c4ccc(Cl)cc4CCc4cccnc43)CC2)c1` the viability was 1.37%.
`COc1ccc(O)cc1` gave a viability of 110%.
With `O=C1Nc2ccc(Cl)cc2[C@@](C#CC2CC2)(C(F)(F)F)O1` the viability was 1.73%.
The viability of `CCCN[C@H]1CCc2nc(N)sc2C1` is reported as 97.4%.
`Cc1ccsc1C(=CCCN1CCC[C@@H](C(=O)O)C1)c1sccc1C` has a viability of 91.5%.
For `COc1ccc([C@@H]2OC[C@H]3[C@@H]2CO[C@@H]3c2ccc(O[C@@H]3O[C@H](CO)[C@@H](O)[C@H](O)[C@H]3O)c(OC)c2)cc1OC`, the viability was 103%.
`CCCCCCCC(=O)N[C@H](CN1CCCC1)[C@H](O)c1ccc2c(c1)OCCO2` has a viability of 19.3%.

Set 3
SMILES: Cc1cc(NC(=O)c2cccc(S(F)(F)(F)(F)F)c2)cc(-n2ccn3nc(-c4cccnc4)cc23)c1
Effect on: cell-free assay
Technique: competition with immobilised ligand
Tested at: 1 µM
The remaining binding was 50.7% (CSNK1A1 (Homo sapiens, UniProt P48729)).
It gave 100% for remaining binding (SBK3 (Homo sapiens, UniProt P0C264)).
The remaining binding was 100% (DYRK1A (Homo sapiens, UniProt Q13627)).
It gave 81.7% for remaining binding (FGFR2 (Homo sapiens, UniProt P21802)).
For Tyrosine-protein kinase ABL1, non-phosphorylated (ABL1, Homo sapiens, UniProt P00519): remaining binding read 52.2%.
Ribosomal protein S6 kinase alpha-3, N-terminal kinase domain (RPS6KA3, Homo sapiens, UniProt P51812) — remaining binding: 66.6%.
MAP3K14 (Homo sapiens, UniProt Q99558) — remaining binding: 73.8%.
For KIT (Homo sapiens, UniProt P10721, D816V): remaining binding read 100%.
DCLK3 (Homo sapiens, UniProt Q9C098) — remaining binding: 100%.

Set 4
Structure (SMILES): CC(C)n1cnc(-c2ccc(F)cc2)c1-c1ncc(C(=O)Nc2ccc(N3CCN(C)CC3)cc2)[nH]1
The “patients with adverse event” was 0% (measured: any adverse event, grade 5; idiopathic pulmonary fibrosis patients; oral, 30 mg once daily).
It gave 0% for “patients with adverse event” (Phase 2a trial, measured: hypercholesterolaemia; human, idiopathic pulmonary fibrosis; all compound arms total, grade 1).
The “patients with adverse event” was 0% (Phase 2a trial, measured: hypertriglyceridaemia; human, idiopathic pulmonary fibrosis; all compound arms total, grade 5).
For Phase 2a trial, measured: blood creatinine increased; human, idiopathic pulmonary fibrosis; all compound arms total, grade 5: “patients with adverse event” read 0%.
